Assay results of several laboratories.
Each numbered part is a random draw from the data of one study; scales do not carry over between parts. Values joined by “and” are separate records of one study, mostly repeats; a detail may differ. Positions count from the first letter of the parent shown.

Set 1
Substance: merbromin
Action: inhibitor
POLQ helicase domain: DNA polymerase theta, helicase domain (POLQ, Homo sapiens, UniProt O75417)
Sequence of UniProt O75417 (whole entry, unmodified, looked up): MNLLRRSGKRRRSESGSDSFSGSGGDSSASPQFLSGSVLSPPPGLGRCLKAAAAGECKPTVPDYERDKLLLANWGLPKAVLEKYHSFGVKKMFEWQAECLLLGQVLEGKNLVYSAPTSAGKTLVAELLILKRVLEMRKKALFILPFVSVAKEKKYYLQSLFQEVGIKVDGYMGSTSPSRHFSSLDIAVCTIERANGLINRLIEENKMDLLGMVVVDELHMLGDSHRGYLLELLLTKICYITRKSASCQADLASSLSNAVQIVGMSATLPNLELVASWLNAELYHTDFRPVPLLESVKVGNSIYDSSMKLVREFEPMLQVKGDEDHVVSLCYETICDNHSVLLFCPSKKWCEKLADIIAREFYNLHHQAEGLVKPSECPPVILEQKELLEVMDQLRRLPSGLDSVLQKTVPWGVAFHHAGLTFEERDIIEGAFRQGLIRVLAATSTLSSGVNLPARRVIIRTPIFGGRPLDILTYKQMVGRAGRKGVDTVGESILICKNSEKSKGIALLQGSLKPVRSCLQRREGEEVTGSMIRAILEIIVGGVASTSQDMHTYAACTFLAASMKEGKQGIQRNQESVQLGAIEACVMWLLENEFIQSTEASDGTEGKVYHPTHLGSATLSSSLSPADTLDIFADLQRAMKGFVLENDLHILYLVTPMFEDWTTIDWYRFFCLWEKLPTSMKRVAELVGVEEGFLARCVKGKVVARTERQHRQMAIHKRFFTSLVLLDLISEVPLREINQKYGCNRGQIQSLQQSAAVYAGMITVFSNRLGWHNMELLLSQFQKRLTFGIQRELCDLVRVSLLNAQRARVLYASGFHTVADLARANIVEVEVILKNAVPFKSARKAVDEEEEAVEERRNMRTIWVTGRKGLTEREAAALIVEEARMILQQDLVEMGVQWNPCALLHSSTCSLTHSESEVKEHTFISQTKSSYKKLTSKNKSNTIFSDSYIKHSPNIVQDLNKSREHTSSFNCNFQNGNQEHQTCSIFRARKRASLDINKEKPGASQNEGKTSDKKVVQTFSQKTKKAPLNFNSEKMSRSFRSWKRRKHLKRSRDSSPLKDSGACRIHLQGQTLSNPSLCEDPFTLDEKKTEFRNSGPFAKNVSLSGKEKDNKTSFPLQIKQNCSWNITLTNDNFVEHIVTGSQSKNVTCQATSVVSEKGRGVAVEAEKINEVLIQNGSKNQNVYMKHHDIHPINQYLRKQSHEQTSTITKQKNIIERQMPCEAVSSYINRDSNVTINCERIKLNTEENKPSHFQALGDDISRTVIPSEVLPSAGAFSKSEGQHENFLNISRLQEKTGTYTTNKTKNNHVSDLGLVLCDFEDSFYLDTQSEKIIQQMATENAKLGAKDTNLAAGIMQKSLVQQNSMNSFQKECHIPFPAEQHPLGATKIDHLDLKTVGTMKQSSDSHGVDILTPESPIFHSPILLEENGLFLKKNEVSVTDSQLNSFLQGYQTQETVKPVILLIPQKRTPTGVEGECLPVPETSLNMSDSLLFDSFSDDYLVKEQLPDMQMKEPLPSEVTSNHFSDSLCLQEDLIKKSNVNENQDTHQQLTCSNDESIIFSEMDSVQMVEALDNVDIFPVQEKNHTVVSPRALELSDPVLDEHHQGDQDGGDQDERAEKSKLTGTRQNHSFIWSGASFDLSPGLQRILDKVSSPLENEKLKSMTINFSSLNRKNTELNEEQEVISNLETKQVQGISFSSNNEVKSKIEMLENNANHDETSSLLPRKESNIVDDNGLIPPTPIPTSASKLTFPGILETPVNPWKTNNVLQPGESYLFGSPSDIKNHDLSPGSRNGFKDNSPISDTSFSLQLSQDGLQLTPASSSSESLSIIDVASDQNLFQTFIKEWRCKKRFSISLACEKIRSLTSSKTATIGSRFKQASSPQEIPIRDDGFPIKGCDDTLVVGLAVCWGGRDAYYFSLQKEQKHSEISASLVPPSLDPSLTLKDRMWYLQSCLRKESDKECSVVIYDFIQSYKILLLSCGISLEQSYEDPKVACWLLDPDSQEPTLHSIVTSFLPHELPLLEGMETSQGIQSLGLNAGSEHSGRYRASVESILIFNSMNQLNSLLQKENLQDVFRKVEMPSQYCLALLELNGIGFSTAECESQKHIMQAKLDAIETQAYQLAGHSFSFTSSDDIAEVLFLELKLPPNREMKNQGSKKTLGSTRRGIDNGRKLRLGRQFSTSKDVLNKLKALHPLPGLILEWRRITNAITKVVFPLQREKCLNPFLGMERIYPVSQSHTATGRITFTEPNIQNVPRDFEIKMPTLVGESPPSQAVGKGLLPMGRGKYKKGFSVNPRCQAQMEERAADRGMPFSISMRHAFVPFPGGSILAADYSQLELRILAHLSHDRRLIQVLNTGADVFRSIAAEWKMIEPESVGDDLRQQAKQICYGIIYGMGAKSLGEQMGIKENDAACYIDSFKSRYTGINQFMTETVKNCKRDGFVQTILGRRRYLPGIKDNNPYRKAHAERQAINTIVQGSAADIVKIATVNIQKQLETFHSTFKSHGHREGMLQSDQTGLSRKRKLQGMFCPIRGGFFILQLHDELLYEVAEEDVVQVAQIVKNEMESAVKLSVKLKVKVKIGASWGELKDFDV
target | test | setting | remaining activity
POLQ helicase domain | ATPase activity | concentration not given, without ssDNA | 37.1% and 36.2%
DNA polymerase theta, ATPase domain (POLQ, Homo sapiens, UniProt O75417) | ATPase activity, ADP-Glo | 77 µM | 11.7%
POLQ helicase domain | enzyme activity | concentration not given, without ssDNA | 36.6%

Single results of other studies
P1: peptide; VAYPNSYMPKYQIST; partner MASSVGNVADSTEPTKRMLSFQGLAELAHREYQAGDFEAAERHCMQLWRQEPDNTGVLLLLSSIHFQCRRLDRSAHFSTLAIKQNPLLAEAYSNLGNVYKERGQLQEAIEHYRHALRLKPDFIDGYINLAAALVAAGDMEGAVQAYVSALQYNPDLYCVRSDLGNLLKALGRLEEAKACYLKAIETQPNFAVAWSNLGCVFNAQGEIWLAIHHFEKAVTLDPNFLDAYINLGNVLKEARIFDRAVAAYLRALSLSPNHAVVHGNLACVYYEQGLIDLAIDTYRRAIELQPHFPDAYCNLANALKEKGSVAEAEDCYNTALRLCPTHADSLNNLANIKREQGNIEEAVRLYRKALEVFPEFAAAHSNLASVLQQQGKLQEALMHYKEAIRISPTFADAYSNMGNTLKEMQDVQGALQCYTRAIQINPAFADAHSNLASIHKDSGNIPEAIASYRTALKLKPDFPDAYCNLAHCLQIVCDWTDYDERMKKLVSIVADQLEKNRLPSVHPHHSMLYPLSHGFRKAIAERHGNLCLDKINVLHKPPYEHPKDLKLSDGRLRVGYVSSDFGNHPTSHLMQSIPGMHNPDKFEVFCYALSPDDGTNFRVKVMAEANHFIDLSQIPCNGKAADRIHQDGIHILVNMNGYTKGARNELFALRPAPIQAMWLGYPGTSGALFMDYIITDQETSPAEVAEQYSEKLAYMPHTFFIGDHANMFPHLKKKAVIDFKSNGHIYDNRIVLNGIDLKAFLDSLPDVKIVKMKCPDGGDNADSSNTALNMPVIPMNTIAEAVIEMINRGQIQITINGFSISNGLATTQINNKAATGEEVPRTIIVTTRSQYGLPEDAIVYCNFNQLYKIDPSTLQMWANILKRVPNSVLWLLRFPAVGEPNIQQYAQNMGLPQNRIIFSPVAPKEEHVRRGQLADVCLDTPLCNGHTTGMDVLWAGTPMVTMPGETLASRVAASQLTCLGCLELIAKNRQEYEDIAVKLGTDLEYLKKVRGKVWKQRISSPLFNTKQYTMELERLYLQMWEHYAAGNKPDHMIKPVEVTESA
Substance | target or system | test | system | setting | how to read | measurement | value
COc1cc(C(=O)OCCCN2CCCN(CCCOC(=O)c3cc(OC)c(OC)c(OC)c3)CC2)cc(OC)c1OC | – | – | male CD-1 mouse, dorsal root ganglia | subcutaneous, dose not given, 12 h | – | tissue concentration | 4.12 ng/mL
O=c1c2ccccc2nc(-c2ccccc2)n1-c1ccncc1 | – | – | mouse, microsomes or S9 | 2 µM, 0.5 h | – | remaining compound | 98%
O=C1CC[C@@]2(O)[C@H]3Cc4ccc(O)c5c4[C@@]2(CCN3CC2CC2)[C@H]1O5 | HaCaT | – | – | 100 µM, 36 h | – | viability | 96%
P1 K10S | OGT, full length, His-tagged (human) | phage display, sequencing | in vitro | 1 µg OGT, single substitutions, 15-mer displayed peptide, unchanged parent 6.14 | reference: input library, higher = stronger binding | fold enrichment | 1 fold

Some of these lines once more (set 1):
target | test | setting | remaining activity
POLQ helicase domain | enzyme activity | concentration not given, without ssDNA | 36.6%
